Results collected from several papers.
A part holds a random share of what one study measured.

Sample 1
Target: Ras GTPase-activating protein-binding protein 1, full length (G3BP1, Homo sapiens, UniProt Q13283)
Chain of UniProt Q13283 (whole entry, looked up): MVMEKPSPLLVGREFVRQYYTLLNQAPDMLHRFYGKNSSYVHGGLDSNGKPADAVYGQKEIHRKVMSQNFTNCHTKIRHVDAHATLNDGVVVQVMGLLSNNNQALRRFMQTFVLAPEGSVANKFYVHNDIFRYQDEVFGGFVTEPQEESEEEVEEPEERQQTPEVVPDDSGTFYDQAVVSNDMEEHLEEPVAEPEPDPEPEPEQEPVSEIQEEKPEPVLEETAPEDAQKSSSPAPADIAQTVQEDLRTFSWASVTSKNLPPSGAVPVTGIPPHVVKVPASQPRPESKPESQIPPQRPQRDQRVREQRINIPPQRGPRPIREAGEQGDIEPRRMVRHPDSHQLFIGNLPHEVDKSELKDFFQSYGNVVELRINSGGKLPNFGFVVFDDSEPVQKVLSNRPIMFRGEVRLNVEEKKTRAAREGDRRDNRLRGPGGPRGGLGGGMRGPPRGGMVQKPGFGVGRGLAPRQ
Method: RNA Bind-n-Seq
Form: RNA
Matrix: in vitro
Tested at: 200 nM
Setting: whole 134-nt RNA, ends assumed
With: 150 mM LiCl
Reference: input library
Direction: higher = stronger binding
All molecules: 7-deaza-guanosine replaces G
Constant ends, left off below: GGGAGUUCUACAGUCCGACGAUC … UGGAAUUCUCGGGUGUCAAGG
Sequence	log2 enrichment
AGUCCUGUGCUACACAUCGUAUGUACCGAAUCGGAAAAAGGAAAAAGGAAAAAAAGGAAAGUAUUAUGUUACGCCGUUCGGAUCUGCACU	-1.39
CAAGUCCUGUGCUACACAUCGUAUGUACCGAAUCGGGUUUGGGGUUUGGUUUGGGGAAAGUAUUAUGUUACGCCGUUCGGAUCUGCACUU	-1.01
CAAGUCCUGUGCUACACAUCGUAUGUACCGAAUCGGGGUUUUGGUUUUGGUUUUGGAAAGUAUUAUGUUACGCCGUUCGGAUCUGCACUU	-1.36
UGGCCCUGGUGGCAUGCGGGGAGGAAGAGGUGGCCUCAUGGAUCGUGGUGGUCCCGGUGGAAUGGUCAGAGGUGGCCGUGGUGGAGACAG	0.597
UCCUGUGCUACACAUCGUAUGUACCGAAUCAAACCCCCCCAAACCCCCAAAUUUUUAAAAAAGUAUUAUGUUACGCCGUUCGGAUCUGCA	0.577
CUGUGCUACACAUCGUAUGUACCGAAUCGGGGUUUUUUUGGGGAAAAAAAGGGGAAAGGGGAAAGUAUUAUGUUACGCCGUUCGGAUCUG	-1.1
CAAGUCCUGUGCUACACAUCGUAUGUACCGAAUCGGGGUUGGGGUUGGGGUUGGGAAAGUAUUAUGUUACGCCGUUCGGAUCUGCACUUC	-0.435
CCUCAAGUCCUGUGCUACACAUCGUAUGUACCGAAUCGGAAAAAGGAGGAGGAAAGUAUUAUGUUACGCCGUUCGGAUCUGCACUUCCAG	-0.0946
GCAGGAAGUAAAAACAAAUGGAAAUGCUUCGGAUAGUGGCAGGGGUGGGGGUUGCUAAGGAAAGGGUCGGAUGGGAGUGGGUAAAGAGUU	-0.0616
AAGUCCUGUGCUACACAUCGUAUGUACCGAAUCAAACCCAAAUUUAAACCCCCAAAAAAGUAUUAUGUUACGCCGUUCGGAUCUGCACUU	1.52
CCUCAAGUCCUGUGCUACACAUCGUAUGUACCGAAUCGGGGUGGUGGGUGGGAAAGUAUUAUGUUACGCCGUUCGGAUCUGCACUUCCAG	0.042

Sample 2
Target: Histone acetyltransferase KAT6A, winged helix 1, GST fusion (KAT6A, Homo sapiens, UniProt Q92794, residues 1-85)
Method: protein binding microarray
Form: double-stranded DNA, one strand shown
Matrix: in vitro
Tested at: not given
Setting: 8-mer, flanks averaged, mean of 2 arrays, mostly near background
Reference: not given
Direction: higher = stronger binding
Target sequence (chain): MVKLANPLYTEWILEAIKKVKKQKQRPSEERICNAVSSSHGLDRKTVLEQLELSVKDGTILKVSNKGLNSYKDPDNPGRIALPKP
Sequence	E-score
CAGACGGC	0.327
GCGGGAGA	0.271
CCCACCAC	-0.145
GTCTACCA	-0.196
AAGTTTAT	0.00659
ATTGTACC	-0.0183
GTGGAACA	-0.0288
TGAGGGCA	-0.144
AAATGGCT	-0.134
AGCACGTC	-0.0758
ACAGGTAT	-0.0377
GTTAATTA	-0.0353
AACTAAGG	-0.0868
TAAGTGGA	-0.245
ATAGACGC	0.175
CCACCGAC	0.0906
CGCTGCGC	0.387
CCGCTTTA	0.264
AATGGTAC	0.0132
TCGAACGA	-0.0882
AATGATGT	-0.153
GTAGGAGA	-0.099
GCATCAAC	0.0878
CAACAATG	-0.155

Sample 3
Target: RNA binding protein fox-1 homolog 2, RRM domain, GST-SBP tag (RBFOX2, Homo sapiens, UniProt O43251-10, residues 100-194)
Method: RNA Bind-n-Seq
Form: RNA
Matrix: in vitro
Tested at: 365 nM
Setting: natural RNA segment, single round, ends assumed
Reference: no-protein control
Direction: higher = stronger binding
Constant ends, left off below: GGGAGUUCUACAGUCCGACGAUC … UGGAAUUCUCGGGUGCCAA
Construct (chain): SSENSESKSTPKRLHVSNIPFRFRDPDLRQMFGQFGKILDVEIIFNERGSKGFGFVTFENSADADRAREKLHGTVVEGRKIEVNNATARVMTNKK
Sequence	RBNS enrichment (R)
AAAUUUCAUACUCUUUUGUCUUUGGAGAUUCCAUUGUGGACAGUAAUACGCAGUUACAGGGUGUAGUCUGUUUAGAUUCCGUAGUUCGUGGGUAUCAGUUUCGGUAGAGG	0.414
GGUGGCAGCAGUGCUCUCUCCUGCCUCCUGCGGACUCAGGUCUCUGGGGCUGCUCACUAGGCCUUGUAAUCACACAGCACAAGCAUACCUCACAGCCACCCUGAGGCUCU	0.328
AGUGUGCUGCUAUGCCUCUCUGCCUAGGAACCAAAUUUUAAAGAAGUCAGAGACAUUUUGAGGUGGUUACUACAGAUUACUGUUUCACAUUGUUUUCCUCACUGGACAGG	0.253
UGGAAGUAUUUUUUCACAUUUUCUUUGUAUAAAAUUUGUAUUAAACUUAAAUAUCUUUUUGAUGGUGGUGUUUCUUUGUGACUGAGCCAGUAGACUCACACUAUAUGCUU	0.918
AGGGACUUACGCAUUUGGCCAAUGUCAAAAGAACAGAACUUUGCCCACUGCACACUUGCUGUGUACAAUGACUGAGCCCUUUCUUGUAGUUUGUUUCCUUGUUUGAGAGG	0.398
CAGACGACUGAGCCGGGGAGCAGCAAUGUUGUAUGGGCUACGCGGCCCAUGGCCGUGGGUCUCCUCGCUGAGCUGCAACCUGAUGCAUCGACAUUUAAUGUUGGCAGUGU	0.24
UAUGUUGUCCUAACAAGCCAACCCCAACCAACAAUUGUUAAGCUGCUCCUUAAAAAUGAAACAGGAGAAAGCCUGGCAUUGUAUACCUGUUUUUGUUGCUCAGUAAUUCA	0.346
UUUAAAAAUUUGUCCUUAAAUGAAUAAAUAAAAUAAAAGUUGGUCCUGUGAGAGGAUAAUGAAGAUGCGACCUCGCUCACCUUCCCUUUAUUCUGCCGCAAAGUCCCACC	0.247
GGUUGCCUGUGGUCUCUGUCAUCCUCGUUUCUCUUCUGAAAUGAAUUUCCACCUCUGCCUUUAAGGCAUUUUUGUCACUGAAGCUGCUGUUCCCAAGAGAUCGGCAACCU	0.332
ACUGUGAGGGUGGGCCCUGAGGAGACCUGUGGGCCACCUAUUGUCUAAUAAAGUGGGCAGUUGCCCCAUCUGGUGGCUUUCCUUAGGGGUGAGGGGUCUUGUUGGGUCCC	0.484
CAACUUGAACACGGUUUGCACAAUGGUAUAACGAGGCAACCUUUGCCUUCUUCAGAAGCUUGGAAAUCGACACACAAAACAGUGCACAUUUAGUUCACUGCUAAACAAAU	0.303
CAAAAGAGAACUGGUUAACCUUGAAGUGACUGUUGUACAGUGGCUGUGCACGUGCUUCAGACUCAUUUGCGAGGGAAUGCUUUCUGUAUGAGAGGGAGACGGUAGGCCUU	0.742

Sample 4
Target: RING finger protein unkempt homolog, zinc fingers 1-6, GST-SBP tag (UNK, Homo sapiens, UniProt Q9C0B0, residues 30-357)
Chain of UniProt Q9C0B0 (30-357, looked up): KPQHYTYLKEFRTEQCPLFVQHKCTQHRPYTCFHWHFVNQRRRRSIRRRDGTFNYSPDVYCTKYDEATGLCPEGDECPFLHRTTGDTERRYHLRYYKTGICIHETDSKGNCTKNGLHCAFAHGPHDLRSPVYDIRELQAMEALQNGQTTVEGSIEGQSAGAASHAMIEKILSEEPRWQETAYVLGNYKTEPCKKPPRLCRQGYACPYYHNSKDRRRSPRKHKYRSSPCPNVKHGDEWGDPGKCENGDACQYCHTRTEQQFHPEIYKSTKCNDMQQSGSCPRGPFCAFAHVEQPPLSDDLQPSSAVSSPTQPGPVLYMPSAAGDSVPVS
Method: RNA Bind-n-Seq
Form: RNA
Matrix: in vitro
Tested at: not given
Setting: RNA with constant flanks, human and mouse sites, ends assumed
Reference: input RNA pool
Direction: higher = stronger binding
Constant ends, left off below: GGGAGUUCUACAGUCCGACGAUC … CAACAGAGGAUUGAGCAUCA
Sequence	bound/input enrichment [ratio]
UUUGACAAGGAUGGGAAUGGUUACAUCAGUGCGGCAGAACUGCGCCACGUCAUGACAAACUUAGGAGAAAAGCUAACAGAUGAAGAAGUAGAUGAAAUGAUCAGAGAAGCAGAUAUUGAU	2.15
GAAGAUGAUGAAGAAUCUGGACGAUUACGUUUCAAAACUGAAAGGAAAGAAGGAACAAUUAUUAGGCUCUCAGAUGUAACUAGAGAGAGAAGGAACAUUCCAGAAACUUUGGAGCUUUCA	0.268
GCAAUGACAAUUUCCUAAGAUAACUGAAAUGAACAGUGAAGAAACUGUGCUCAUAAAUCAGUACAUAAAGAUUACUUCCUAGGACUUUUAUUUCCCAUUAGUAUUAUUUAUUAUUCAAGG	121
ACUCAGCACCUCAGUGUUGAAACCUCAUACCUUCAGCAUGAAAGUGGCCGGAUCUCCACCAAGUUUGAAUUUAUCCCCAGCCCUGGAAACCACUUCAUUUGGUAUCAGGGAAAAUGGAUC	0.134
AAACCAACUAAAAACAUGAUUAACAUCAACAGCCGCCUGCAGGAAGUCUUUGGCUGUGCCAUUAGGGCUGCAUAUCCAGACUUGGAGAACCCUCCCCUGAUCGUGACACCAAGUCAGCAG	2.15
CUGACACUACUCUUCACUGAGCUGGCAAAAGUAAUAGAAAGCUCAGCGAAGGGUUUCCCUAGUUUUAUUUCUGAUAUGUUAUCUAAGUGCAAAGUUCAGAAAGUGAUUCUUCAUUGUUUG	3.76
GCCUGGAGAUUUGCGCCCGCACAUGGUCAUUGGUUUUCCGAAAAGAGAGGGUAAAUUUAUAUAGAAAUUUACAGGUAUUUGGGUAGUCAUUUAGACCGAGGGAGACCAGUGUUUCCAUUU	0.338
CCCAAUGAGUUGCCAUAUAAUGAUUACUUUGAGUAUUUUGGACCAGACUUCAAACUGCAUAUUAGUCCUUCAAACAUGACAAACCAGAACACUCCAGAAUAUAUGGAAAAGAUAAAACAG	0.417
GUUCCGGAAAUCAUGGAUCGGAUCUACAAAAAUGUCAUGAAUAAAGUCAGUGAAAUGAGUAGUUUUCAACGUAAUCUGUUUAUUCUGGCCUAUAAUUACAAAAUGGAACAGAUUUCAAAA	0.321
ACGCUGCCCUCGGACAAGCUGAGCAAGAUUCAGACCCUCAAGCUGGCGGCCAGGUACAUCGACUUCCUCUACCAGGUCCUCCAGAGCGACGAGCUGGACUCCAAGAUGGCAAGCUGCAGC	0.133
AUUAACGCUGUUGUAUGAACAAUAUUUGGUGACAUGUUGUCUUUUUGUCCUGUAGAUUGUCAUAUCUGUUAUGUAGUUAUCCUUUUGGCAAGUCCUUUGAUUUUUUUUUCCUCUAGAAAA	1.01

Repeated from above (sample 2):
Sequence	E-score
GTGGAACA	-0.0288
GTTAATTA	-0.0353
AATGGTAC	0.0132
ACAGGTAT	-0.0377
CCGCTTTA	0.264
